Published values from different studies.
Protocols differ between the studies behind these lines. ± marks the error that the study gave.
cofactor-independent phosphoglycerate mutase W431C: cofactor-independent phosphoglycerate mutase (Metamycoplasma orale, UniProt A0A448ZXM1, W431C)

| Structure (SMILES) | tested on | test | system | conditions | how to read | measurement | result |
| --- | --- | --- | --- | --- | --- | --- | --- |
| CN1C(=O)[C@H](CCC(=O)O)NC(=O)[C@H](Cc2ccc(O)cc2)NC(=O)[C@H](CCCNC(=N)N)NC(=O)[C@@H](Cc2ccc(O)cc2)NC(=O)CSC[C@@H](C(N)=O)NC(=O)[C@H](CCCCN)NC(=O)[C@@H]2CCCN2C(=O)[C@H](CS)NC(=O)[C@H](CCC(=O)O)NC(=O)[C@H](Cc2ccc(O)cc2)N(C)C(=O)[C@H](CCCCN)NC(=O)[C@H](Cc2ccc(O)cc2)NC(=O)[C@@H]1Cc1ccc(O)cc1 | cofactor-independent phosphoglycerate mutase W431C | biochemical | Mycoplasma orale |  |  | AC50 | 1.07 µM |
| COC(=O)C[C@](O)(CCCC(C)(C)OC(C)=O)C(=O)O[C@@H]1C(OC)=C[C@]23CCCN2CCc2cc4c(cc2[C@H]13)OCO4 |  |  | CD1 mouse, plasma | oral, 1 mg/kg, 24 h |  | concentration | not detected |
| COc1cc(NC(=O)C(=O)c2c(C)n(Cc3ccc(Cl)cc3)c3ccc(C)cc23)ccn1 |  |  | male cynomolgus monkey, plasma | oral, 10 mg/kg |  | Cmax | 489 ng/mL |
| C[C@H]1N=C(c2ccccc2F)c2cc(Br)ccc2-n2cnc(C(=O)OC3O[C@H](C(=O)O)[C@@H](O)[C@H](O)[C@H]3O)c21 (some centres unmarked) |  |  | Swiss Webster mouse | intravenous, 250 µg of parent drug, 0 to 48 h | reference: dose | excretion in urine and feces | 2.6 ± 0.54% |
| C[C@@](O)(C(F)F)[C@H](NC(=O)c1ccc(C#CC#CC2CC2)cc1)C(=O)NO |  |  | CD-1 mouse | oral, 40 mg/kg, not fasted |  | Cmax | 3000 ± 2000 ng/mL |
| C[C@@H]1CC[C@H]2[C@@H](C)CO[C@@H]3O[C@@]4(C)CC[C@@H]1[C@]32OO4 |  | refers to: compound | rat, plasma | 2.00 ng/mL spiked, 30 days, long-term storage at -80 °C |  | measured concentration | 2.04 ± 0.05 ng/mL |
| [2H]C([2H])([2H])C([2H])([2H])C([2H])([2H])OC(C(=O)OC1CCNCC1)(c1ccccc1)c1ccccc1 |  | refers to: headache | healthy Japanese male | oral, 10 mg, 16 days, multiple ascending dose |  | adverse drug reactions | 0% |
| CC[C@H](C)[C@H](NC(=O)CNC(=O)[C@H](CC(C)C)NC(=O)[C@H](Cc1ccccc1)NC(=O)CN)C(=O)N[C@@H](CC(C)C)C(=O)N[C@@H](Cc1ccccc1)C(=O)N[C@@H](Cc1c[nH]cn1)C(=O)NCC(=O)N[C@H](C(=O)N[C@@H](Cc1c[nH]cn1)C(=O)N[C@@H](Cc1c[nH]cn1)C(=O)NCC(=O)N[C@@H](CCCNC(=N)N)C(=O)N[C@@H](CCCCN)C(=O)N[C@@H](CCCCN)C(=O)N[C@@H](C)C(=O)N[C@@H](CC(C)C)C(=O)N[C@@H](Cc1c[nH]cn1)C(=O)N[C@@H](CCSC)C(=O)N[C@@H](CC(N)=O)C(=O)N[C@@H](CO)C(=O)N[C@@H](CCC(=O)O)C(=O)N[C@@H](CCCNC(=N)N)C(=O)N[C@@H](CCCNC(=N)N)C(=O)N[C@@H](CO)C(=O)O)C(C)C |  |  | zebrafish embryos | 1 h, 4, 28, 52 hpf |  | acute toxic concentration | 25 µg/mL |
| CC[C@H](C)C(=O)N1CCC(NC(=O)Nc2ccc(OC(F)(F)F)c(F)c2)CC1 |  |  | healthy volunteers | oral, 16 mg single dose |  | subjects with headache TEAE | 0% |
| CCNc1cc2[o+]c3cc(NCC)c(C)cc3c(-c3ccccc3C(=O)OCCOCC[18F])c2cc1C |  |  | rat, thyroid/trachea | 30 min |  | tissue uptake | 1.05 ± 0.34 %ID/g |
| O=C1C(P(=O)(O)O)CCCN1O (centres unmarked) |  |  | cynomolgus monkey, plasma | subcutaneous, 400 mg/kg, single dose, over several hours |  | plasma concentration | > 2000 µM |
| N=C(N)NCCC[C@@H]1NC(=O)[C@@H](Cc2ccc(O)cc2)NC(=O)CSC[C@@H](C(=O)N2CCC[C@H]2C(=O)N[C@@H](CCCCN)C(=O)N[C@@H](CS)C(N)=O)NC(=O)[C@H](CCC(=O)O)NC(=O)[C@H](Cc2ccc(O)cc2)NC(=O)[C@H](CCCCN)NC(=O)[C@H](Cc2ccc(O)cc2)NC(=O)[C@H](Cc2ccc(O)cc2)NC(=O)[C@H](CCC(=O)O)NC(=O)[C@H](Cc2ccc(O)cc2)NC1=O | cofactor-independent phosphoglycerate mutase W431C | biochemical | Mycoplasma orale |  |  | AC50 | 24.5 µM |
| CC(C)C[C@@H](N)C(=O)NCC(=O)N[C@H](C)C(=O)N[C@H](CO)C(=O)N[C@H](Cc1c[nH]c2ccccc12)C(=O)N[C@H](Cc1c[nH]cn1)C(=O)N[C@H](CCCNC(=N)N)C(=O)N1CCC[C@@H]1C(=O)N[C@H](CC(=O)O)C(=O)N[C@H](CCCCN)C(=O)N[C@H](CS)C(=O)N[C@H](CS)C(=O)N[C@H](CC(C)C)C(=O)NCC(=O)N[C@H](Cc1ccc(O)cc1)C(=O)N[C@H](CCC(N)=O)C(=O)N[C@H](CCCCN)C(=O)N[C@H](CCCNC(=N)N)C(=O)N1CCC[C@@H]1C(=O)N[C@H](CC(C)C)C(=O)N1CCC[C@@H]1C(N)=O |  | LC-MS/MS | rat plasma extract | 5000 ng/mL, 4 h, 8 °C, autosampler storage |  | measured concentration | 4990 ± 174 ng/mL |
| CC(C)C[C@@H](NC(=O)[C@@H](CCCCN)NC(=O)CNC(=O)CNC(=O)[C@@H]1CSSC[C@H](N)C(=O)NCC(=O)N[C@@H](CCCNC(=N)N)C(=O)N[C@@H](CCCNC(=N)N)C(=O)N[C@@H](C)C(=O)NCC(=O)NCC(=O)N[C@@H](CO)C(=O)N1)C(=O)N[C@H](C)C(=O)N[C@H](CCCCN)C(=O)N[C@H](CC(C)C)C(=O)N[C@H](C)C(=O)N[C@H](CCCCN)C(=O)N[C@H](CCCCN)C(=O)N[C@H](CC(C)C)C(=O)N[C@H](C)C(=O)N[C@H](CCCCN)C(=O)N[C@H](CC(C)C)C(=O)N[C@H](C)C(=O)N[C@H](CCCCN)C(=O)O |  |  | cynomolgus monkey, plasma | intravenous infusion, 1 mg/kg, 2 h |  | plasma level | not detected |
| COc1cc2c3cc(OC)c(OC)cc3c3c[n+]4c(cc3c2cc1OC)CCC4 |  |  | swine cells | 24 (unit not given) |  | CC50 | > 100 µM |
| CSCC[C@@H]1NC(=O)[C@@H]2CSSC[C@H](NC(=O)[C@H](CO)NC(=O)[C@H](C)N)C(=O)N[C@@H](CCCNC(=N)N)C(=O)N[C@@H]([C@@H](C)O)C(=O)N3CCC[C@H]3C(=O)N[C@@H](CCCCN)C(=O)N[C@@H](CC(=O)O)C(=O)N[C@H]3CSSC[C@H](NC(=O)[C@H](CCCCN)NC(=O)[C@H](CCCNC(=N)N)NC(=O)[C@H](CC(N)=O)NC1=O)C(=O)N[C@@H](CCCCN)C(=O)N[C@H]1CSSC[C@H](NC(=O)[C@@H]4CCCN4C(=O)[C@H](CC(=O)O)NC(=O)[C@H](C)NC3=O)C(=O)N[C@@H](C)C(=O)N[C@@H](CCCCN)C(=O)N[C@@H](CCC(=O)O)C(=O)N[C@@H]([C@@H](C)O)C(=O)NCC(=O)N[C@@H](CSSC[C@@H](C(N)=O)NC(=O)[C@H](CCCNC(=N)N)NC(=O)[C@H](CC(N)=O)NC1=O)C(=O)N1CCC[C@H]1C(=O)N[C@@H](Cc1ccc(O)cc1)C(=O)NCC(=O)N[C@@H](CCCCN)C(=O)N2 |  |  | DA rat, pristane-induced arthritis, serum | subcutaneous, 0.1 mg/kg every other day, end of 21-day trial |  | indirect bilirubin | 0.02 mg/dL |
| COc1cc2ncnc(Oc3cccc(N[11C](=O)Nc4cc(C(C)(C)C(F)(F)F)on4)c3)c2cc1OC |  |  | female Balb/c nude mice, plasma | intravenous, 5 min | reference: radioactivity | intact fraction | 7.82 ± 0.26% |
| CCCC[C@H]1C(=O)N(C)[C@@H](CCCC)C(=O)N[C@@H](CCCNC(=O)CN2CCN(CC(=O)O)CCN(CC(=O)O)CCN(CC(=O)O)CC2)C(=O)N[C@H](C(=O)NCC(N)=O)CSCC(=O)N[C@@H](Cc2ccc(O)cc2)C(=O)N(C)[C@@H](C)C(=O)N[C@@H](CC(N)=O)C(=O)N2CCC[C@H]2C(=O)N[C@@H](Cc2c[nH]cn2)C(=O)N[C@@H](CC(C)C)C(=O)N(C)CC(=O)N[C@@H](Cc2c[nH]c3ccccc23)C(=O)N[C@@H](CO)C(=O)N[C@@H](Cc2c[nH]c3ccccc23)C(=O)N1C [gallium-68 labelled] |  | static PET | NOD/SCID mice, CHO-hPD-L1 xenograft, CHO-hPD-L1 tumour | intravenous, 1 h post injection, after two PBS treatments |  | tumour to muscle ratio | 6.1 ± 0.64 |
| CN[C@](C)(C[18F])C(=O)O |  |  | SCID mouse U87 xenograft, spleen | 30 min, post injection |  | tissue uptake | 12 ± 3.8 %ID/g |
| CCCCCc1ccc(S(=O)(=O)N2CC2C(=O)OC)cc1 (centres unmarked) |  |  | rodent | oral, estimated from 3T3 IC50 |  | LD50 | 530 ± 45 mg/kg |
| [11CH3]n1c(=O)n(CCCO)c(=O)c2c1nc(Oc1cccc(OC(F)(F)F)c1)n2Cc1ccc(Cl)cc1 |  | ex vivo biodistribution | Sprague Dawley rat, heart | 60 min post injection |  | tracer uptake | 0.61 ± 0.13 %ID/g |
| CCCCCCCCCCCCC(=O)O.O=C1CCCC2C3CCCN4CCCC(CN12)C34 (centres unmarked) |  |  | water | concentration not given, 293.15 K |  | critical aggregation concentration | 0.00095 mol/kg |
| COc1cc(-c2cncc(-c3ccc(N4CCN([11CH3])CC4)cc3)c2C)cc(OC)c1OC |  | PET | Sprague-Dawley rat male, brain pons | intravenous |  | peak SUV | 2 ± 0.3 |
| CC(C)C[C@H](NC(=O)[C@H](Cc1ccccc1)NC(=O)CNC(=O)CNC(=O)[C@@H](N)Cc1ccc(O)cc1)C(=O)O |  | K+ current, agonist, photo-uncaging | rat locus coeruleus neurons | small somatic currents |  | reversal potential | -109 ± 1.6 mV |
| COc1ccc(CNc2nc(N3CCC[C@H]3CO)ncc2C(=O)NN)cc1Cl | Salmonella typhimurium |  | TA97a | 125 µg/plate, 48 h, with: rat liver S9 |  | revertant count | 154 ± 7 |
| CC(C)[C@H](NC(=O)CNC(=O)[C@H](CCC(N)=O)NC(=O)[C@H](C)N)C(=O)O |  |  | human | single dose, 1 mg/kg |  | probably related adverse events | 0% |

Repeated from above:
| Structure (SMILES) | tested on | test | system | conditions | how to read | measurement | result |
| --- | --- | --- | --- | --- | --- | --- | --- |
| N=C(N)NCCC[C@@H]1NC(=O)[C@@H](Cc2ccc(O)cc2)NC(=O)CSC[C@@H](C(=O)N2CCC[C@H]2C(=O)N[C@@H](CCCCN)C(=O)N[C@@H](CS)C(N)=O)NC(=O)[C@H](CCC(=O)O)NC(=O)[C@H](Cc2ccc(O)cc2)NC(=O)[C@H](CCCCN)NC(=O)[C@H](Cc2ccc(O)cc2)NC(=O)[C@H](Cc2ccc(O)cc2)NC(=O)[C@H](CCC(=O)O)NC(=O)[C@H](Cc2ccc(O)cc2)NC1=O | cofactor-independent phosphoglycerate mutase W431C | biochemical | Mycoplasma orale |  |  | AC50 | 24.5 µM |
| CC(C)C[C@@H](N)C(=O)NCC(=O)N[C@H](C)C(=O)N[C@H](CO)C(=O)N[C@H](Cc1c[nH]c2ccccc12)C(=O)N[C@H](Cc1c[nH]cn1)C(=O)N[C@H](CCCNC(=N)N)C(=O)N1CCC[C@@H]1C(=O)N[C@H](CC(=O)O)C(=O)N[C@H](CCCCN)C(=O)N[C@H](CS)C(=O)N[C@H](CS)C(=O)N[C@H](CC(C)C)C(=O)NCC(=O)N[C@H](Cc1ccc(O)cc1)C(=O)N[C@H](CCC(N)=O)C(=O)N[C@H](CCCCN)C(=O)N[C@H](CCCNC(=N)N)C(=O)N1CCC[C@@H]1C(=O)N[C@H](CC(C)C)C(=O)N1CCC[C@@H]1C(N)=O |  | LC-MS/MS | rat plasma extract | 5000 ng/mL, 4 h, 8 °C, autosampler storage |  | measured concentration | 4990 ± 174 ng/mL |
| CC(C)C[C@@H](NC(=O)[C@@H](CCCCN)NC(=O)CNC(=O)CNC(=O)[C@@H]1CSSC[C@H](N)C(=O)NCC(=O)N[C@@H](CCCNC(=N)N)C(=O)N[C@@H](CCCNC(=N)N)C(=O)N[C@@H](C)C(=O)NCC(=O)NCC(=O)N[C@@H](CO)C(=O)N1)C(=O)N[C@H](C)C(=O)N[C@H](CCCCN)C(=O)N[C@H](CC(C)C)C(=O)N[C@H](C)C(=O)N[C@H](CCCCN)C(=O)N[C@H](CCCCN)C(=O)N[C@H](CC(C)C)C(=O)N[C@H](C)C(=O)N[C@H](CCCCN)C(=O)N[C@H](CC(C)C)C(=O)N[C@H](C)C(=O)N[C@H](CCCCN)C(=O)O |  |  | cynomolgus monkey, plasma | intravenous infusion, 1 mg/kg, 2 h |  | plasma level | not detected |
